Published values gathered from unrelated publications.
ABL1 E255K phosphorylated: Tyrosine-protein kinase ABL1, phosphorylated (ABL1, Homo sapiens, UniProt P00519, E255K)
ABL1 phosphorylated: Tyrosine-protein kinase ABL1, phosphorylated (ABL1, Homo sapiens, UniProt P00519)

| SMILES | target | assay | setting | how to read | remaining binding |
| --- | --- | --- | --- | --- | --- |
| CNS(=O)(=O)Nc1nccc(Cc2c(C)c3ccc(Oc4ncccc4F)cc3oc2=O)c1F | ABL1 E255K phosphorylated | binding, competition with immobilised ligand | 10 µM | – | 89% |
| CNC1C[S+]2CC[S+]3CC[S+](C1)[Ru-4]321([N]=C=S)[n]2c3ccc(OC)cc3c3c4c(c5cc(F)c[n+]1c5c32)C(=O)NC4=O (stereo not drawn) | ABL1 E255K phosphorylated | KinomeScan | 0.1 µM | baseline: untreated | 77% |
| CC(=O)N1c2ccc(-c3ccc(CNC(=O)c4cn5cc(-c6cnc(N)nc6)nc(N6CCOCC6)c5n4)cc3)cc2CC[C@@H]1C | ABL1 E255K phosphorylated | KINOMEscan | 10 µM, E255K, phosphorylated | – | 85% |
| CCN1CCN(Cc2ccc(NC(=O)c3ccc(C)c(NC(=O)c4cncc(-c5cccs5)c4)c3)cc2C(F)(F)F)CC1 | Tyrosine-protein kinase ABL1 (ABL1, Homo sapiens, UniProt P00519, M351T) | binding, competition with immobilised ligand | 1 µM | – | 0.4% |
| C=C1CCCCCCCCCC(CO)C1=O (stereo not drawn) | ABL1 phosphorylated | cell-free assay, competition with immobilised ligand | 10 µM | – | 100% |
| COc1ccc(NC(=O)Nc2ccc3c(c2)C(=O)N(C(C)CO)CC(C)C(CN(C)Cc2ccc4c(c2)OCO4)O3)cc1 (stereo not drawn) | ABL1 E255K phosphorylated | binding, competition with immobilised ligand | 10 µM | – | 80% |
| C=CC(=O)N1CCc2ccc(-n3c(=O)ccc4cnc5ccc(-c6cnn(C)c6)cc5c43)cc21 | Tyrosine-protein kinase ABL1, non-phosphorylated (ABL1, Homo sapiens, UniProt P00519, Q252H) | KINOMEscan, measured: (Q252H)-nonphosphorylated | 1 µM | baseline: control | 76% |
| Nc1ncc2c(n1)-c1c([nH]c3ccc(C4=CCOCC4)cc13)CCC2 | Tyrosine-protein kinase ABL1, non-phosphorylated (ABL1, Homo sapiens, UniProt P00519, H396P) | binding, competition with immobilised ligand | 1 µM | – | 83% |
| CN1CCN(Cc2ccc(NC(=O)c3cccc(C#Cc4cnc(N)c5ncccc45)c3)cc2C(F)(F)F)CC1 | ABL1 E255K phosphorylated | cell-free assay, competition with immobilised ligand | 50 nM | – | 2.3% |
| COc1c(Cl)cccc1Nc1c(-c2ccncc2C#C[C@@]2(C)CCCN2C(=O)/C=C/CN(C)C)[nH]c2c1C(=O)NCC2 | Tyrosine-protein kinase ABL1 (ABL1, Homo sapiens, UniProt P00519, Y253F) | binding, competition with immobilised ligand | 3 µM | – | 56% |
| CNc1ccc(-c2n[nH]c3c2CCN(C(=O)c2ccccc2)C3)cc1 | ABL1 phosphorylated | cell-free assay, competition with immobilised ligand | 10 µM | – | 27% |
| Cc1ccc(C(=O)Nc2cccc(C(F)(F)F)c2)cc1Nc1cncc(C(N)=O)c1 | Tyrosine-protein kinase ABL1 (ABL1, Homo sapiens, UniProt P00519, F317L) | binding, competition with immobilised ligand | 1 µM | – | 22% |
| CC(C)=CC1OC(C)(C)C2C=C3C(=O)C(Cl)=CC(O)C3C3C(O)C4OC4C(=O)C132 (stereo not drawn) | Tyrosine-protein kinase ABL1, phosphorylated (ABL1, Homo sapiens, UniProt P00519, F317L) | cell-free assay, competition with immobilised ligand | 10 µM | – | 86% |
| CNC(=O)C1CCN(c2cc(C)c(F)cc2NC(=O)c2ccc(-c3cc(O)ccc3C)c(C)c2)CC1 | Tyrosine-protein kinase ABL1, phosphorylated (ABL1, Homo sapiens, UniProt P00519, F317I) | binding, competition with immobilised ligand | 1 µM | – | 20% |
| Cc1ccc(-c2c(/C=C(\C#N)C(=O)NC(C)C)n(CCCO)c3ncnc(N)c23)cc1 | Tyrosine-protein kinase ABL1, non-phosphorylated (ABL1, Homo sapiens, UniProt P00519) | cell-free assay, competition with immobilised ligand | 1 µM | – | 100% |
